Assay results gathered from unrelated publications.
Parts stem from different laboratories: compare values within a part only. Values joined by “and” are separate records of one study, mostly repeats; a detail may differ.
UniProt P00519, sequence (whole entry, unmodified, looked up): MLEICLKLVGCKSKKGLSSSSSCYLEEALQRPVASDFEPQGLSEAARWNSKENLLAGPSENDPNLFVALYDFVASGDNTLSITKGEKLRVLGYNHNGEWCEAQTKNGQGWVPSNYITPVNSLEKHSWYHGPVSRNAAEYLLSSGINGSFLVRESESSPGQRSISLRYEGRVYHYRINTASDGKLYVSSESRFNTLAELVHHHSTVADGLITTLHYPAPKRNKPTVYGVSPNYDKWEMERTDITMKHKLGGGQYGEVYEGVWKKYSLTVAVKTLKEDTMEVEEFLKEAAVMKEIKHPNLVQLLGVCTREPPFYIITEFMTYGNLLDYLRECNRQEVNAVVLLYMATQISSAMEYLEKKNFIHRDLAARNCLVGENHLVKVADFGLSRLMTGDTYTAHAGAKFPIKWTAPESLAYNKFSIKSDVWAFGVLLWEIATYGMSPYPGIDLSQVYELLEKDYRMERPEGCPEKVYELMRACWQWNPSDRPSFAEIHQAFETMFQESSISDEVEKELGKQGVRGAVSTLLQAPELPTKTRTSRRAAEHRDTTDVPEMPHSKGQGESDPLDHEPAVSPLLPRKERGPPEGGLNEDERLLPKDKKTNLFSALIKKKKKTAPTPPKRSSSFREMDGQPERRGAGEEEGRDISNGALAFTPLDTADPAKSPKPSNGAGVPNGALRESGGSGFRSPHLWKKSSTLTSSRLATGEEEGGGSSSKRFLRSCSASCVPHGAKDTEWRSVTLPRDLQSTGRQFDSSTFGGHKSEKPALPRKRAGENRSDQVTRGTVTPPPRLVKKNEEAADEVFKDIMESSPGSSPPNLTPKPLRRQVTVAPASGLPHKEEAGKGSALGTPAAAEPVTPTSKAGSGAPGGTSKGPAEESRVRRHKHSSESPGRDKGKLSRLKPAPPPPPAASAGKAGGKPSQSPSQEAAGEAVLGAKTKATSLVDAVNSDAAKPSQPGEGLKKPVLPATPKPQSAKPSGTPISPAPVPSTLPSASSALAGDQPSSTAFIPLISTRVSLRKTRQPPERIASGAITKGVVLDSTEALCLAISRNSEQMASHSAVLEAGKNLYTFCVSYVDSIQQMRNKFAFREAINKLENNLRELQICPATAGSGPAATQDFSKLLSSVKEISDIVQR
UniProt Q09013, sequence (whole entry, looked up): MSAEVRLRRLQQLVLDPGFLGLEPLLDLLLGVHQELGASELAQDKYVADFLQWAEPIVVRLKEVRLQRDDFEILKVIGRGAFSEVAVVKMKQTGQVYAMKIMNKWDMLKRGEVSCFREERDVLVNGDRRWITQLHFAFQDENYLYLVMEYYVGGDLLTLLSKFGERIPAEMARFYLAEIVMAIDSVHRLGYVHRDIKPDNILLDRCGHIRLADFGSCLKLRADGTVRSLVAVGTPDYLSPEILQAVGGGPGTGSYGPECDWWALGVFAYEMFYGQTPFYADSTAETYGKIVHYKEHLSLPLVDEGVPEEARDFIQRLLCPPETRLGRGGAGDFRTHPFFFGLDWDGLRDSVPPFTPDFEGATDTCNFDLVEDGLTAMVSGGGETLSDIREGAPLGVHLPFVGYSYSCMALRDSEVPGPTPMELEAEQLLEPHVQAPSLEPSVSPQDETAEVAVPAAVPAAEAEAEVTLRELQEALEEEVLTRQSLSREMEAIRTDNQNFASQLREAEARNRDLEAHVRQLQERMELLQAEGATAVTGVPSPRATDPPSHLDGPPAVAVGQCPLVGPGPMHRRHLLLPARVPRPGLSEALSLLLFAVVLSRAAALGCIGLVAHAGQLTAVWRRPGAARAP
UniProt Q96NX5, sequence (whole entry, looked up): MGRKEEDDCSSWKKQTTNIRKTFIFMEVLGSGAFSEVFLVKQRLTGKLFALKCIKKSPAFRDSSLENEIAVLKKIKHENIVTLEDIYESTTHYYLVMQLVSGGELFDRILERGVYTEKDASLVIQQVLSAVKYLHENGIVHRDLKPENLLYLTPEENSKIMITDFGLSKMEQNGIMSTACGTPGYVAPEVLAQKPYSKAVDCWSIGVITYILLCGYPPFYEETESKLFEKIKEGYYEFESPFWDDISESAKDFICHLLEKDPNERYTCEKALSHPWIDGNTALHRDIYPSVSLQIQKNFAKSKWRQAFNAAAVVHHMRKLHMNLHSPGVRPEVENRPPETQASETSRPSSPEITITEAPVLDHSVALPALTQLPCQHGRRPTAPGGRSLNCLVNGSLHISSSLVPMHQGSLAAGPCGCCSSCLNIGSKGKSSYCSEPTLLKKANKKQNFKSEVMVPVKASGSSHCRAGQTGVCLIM
UniProt O00506, sequence (whole entry, looked up): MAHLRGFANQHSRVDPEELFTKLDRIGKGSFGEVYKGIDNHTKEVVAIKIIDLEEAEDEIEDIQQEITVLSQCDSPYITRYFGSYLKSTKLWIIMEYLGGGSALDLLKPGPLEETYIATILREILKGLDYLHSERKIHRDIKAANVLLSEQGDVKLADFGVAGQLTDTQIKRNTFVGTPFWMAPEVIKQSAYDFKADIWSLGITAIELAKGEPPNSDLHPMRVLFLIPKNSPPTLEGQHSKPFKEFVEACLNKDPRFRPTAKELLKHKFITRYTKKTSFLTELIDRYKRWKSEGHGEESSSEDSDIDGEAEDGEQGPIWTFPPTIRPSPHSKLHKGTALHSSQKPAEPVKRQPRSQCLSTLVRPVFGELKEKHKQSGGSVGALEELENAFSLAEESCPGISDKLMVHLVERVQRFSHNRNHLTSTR
UniProt P48730, sequence (whole entry, looked up): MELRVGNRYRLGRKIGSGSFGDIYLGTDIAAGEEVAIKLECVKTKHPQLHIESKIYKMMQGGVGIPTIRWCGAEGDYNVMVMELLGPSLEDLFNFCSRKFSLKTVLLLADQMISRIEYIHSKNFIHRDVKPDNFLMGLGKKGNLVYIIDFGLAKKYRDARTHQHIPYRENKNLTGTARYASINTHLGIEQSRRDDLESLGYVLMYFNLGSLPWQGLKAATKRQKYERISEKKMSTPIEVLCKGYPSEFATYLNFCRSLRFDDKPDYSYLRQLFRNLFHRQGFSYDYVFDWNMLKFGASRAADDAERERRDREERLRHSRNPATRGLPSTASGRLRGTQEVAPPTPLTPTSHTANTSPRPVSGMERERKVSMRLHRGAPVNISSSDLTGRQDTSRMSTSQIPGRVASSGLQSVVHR
UniProt Q13554, sequence (whole entry, looked up): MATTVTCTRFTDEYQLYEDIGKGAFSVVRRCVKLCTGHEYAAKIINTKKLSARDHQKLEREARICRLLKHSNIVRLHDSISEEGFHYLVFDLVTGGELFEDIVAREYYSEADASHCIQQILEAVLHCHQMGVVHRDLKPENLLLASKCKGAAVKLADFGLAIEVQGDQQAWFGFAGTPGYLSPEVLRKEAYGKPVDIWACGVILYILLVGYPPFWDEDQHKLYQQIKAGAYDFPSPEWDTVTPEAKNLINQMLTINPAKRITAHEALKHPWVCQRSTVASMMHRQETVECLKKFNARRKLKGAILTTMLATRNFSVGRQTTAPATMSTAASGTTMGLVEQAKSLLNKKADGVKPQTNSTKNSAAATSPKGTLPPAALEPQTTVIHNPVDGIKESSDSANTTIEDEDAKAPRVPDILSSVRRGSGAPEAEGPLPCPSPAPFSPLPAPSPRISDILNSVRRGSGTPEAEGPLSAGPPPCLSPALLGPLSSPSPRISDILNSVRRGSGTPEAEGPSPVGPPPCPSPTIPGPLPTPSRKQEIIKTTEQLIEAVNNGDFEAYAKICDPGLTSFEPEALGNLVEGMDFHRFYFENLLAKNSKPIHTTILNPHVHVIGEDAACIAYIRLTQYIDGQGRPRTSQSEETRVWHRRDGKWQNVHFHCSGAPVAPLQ
UniProt Q9UQB9, sequence (whole entry, looked up): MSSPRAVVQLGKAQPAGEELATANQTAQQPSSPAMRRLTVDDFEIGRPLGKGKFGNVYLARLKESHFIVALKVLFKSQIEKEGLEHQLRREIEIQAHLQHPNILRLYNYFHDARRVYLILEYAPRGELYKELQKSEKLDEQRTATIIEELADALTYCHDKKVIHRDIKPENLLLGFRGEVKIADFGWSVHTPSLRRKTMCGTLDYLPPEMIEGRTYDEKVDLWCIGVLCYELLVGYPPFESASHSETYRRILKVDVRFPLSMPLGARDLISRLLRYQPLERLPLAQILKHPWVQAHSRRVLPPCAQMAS

Study 1
SMILES: C=C(F)C(=O)N1CCN(c2nc(OC[C@@H]3CCCN3C)nc3c2CCN(c2cccc4cccc(Cl)c24)C3)C[C@@H]1CC#N
Target: GTPase HRas (HRAS, Homo sapiens, UniProt P01112)
Observed: binding
Action: competitor
Technique: NanoBRET
Cells: HEK293
conditions	normalized BRET
2.44 nM	89.8%
27.4 nM	93.3% and 97.9%
611 pM	92.2%
1.02 nM	99.2% and 95.8%
3.05 nM	101% and 108%

Study 2
SMILES: Cn1cc(Cl)c2c(Oc3c(F)cc(Nc4cc(Cl)nc(N)n4)cc3F)ccnc21
Tested at: 0.1 µM
target	assay	remaining binding
Non-receptor tyrosine-protein kinase TYK2, JH2 (TYK2, Homo sapiens, UniProt P29597)	cell-free assay, competition with immobilised ligand	85%
Tyrosine-protein kinase ABL1, phosphorylated (ABL1, Homo sapiens, UniProt P00519, E255K)	binding, competition with immobilised ligand	100%
Serine/threonine-protein kinase B-raf (BRAF, Homo sapiens, UniProt P15056, V600E)	cell-free assay, competition with immobilised ligand	100%
Aurora kinase C (AURKC, Homo sapiens, UniProt Q9UQB9)	cell-free assay, competition with immobilised ligand	97%
Citron Rho-interacting kinase (CIT, Homo sapiens, UniProt O14578)	cell-free assay, competition with immobilised ligand	100%
Serine/threonine-protein kinase SIK1 (SIK1, Homo sapiens, UniProt P57059)	competition binding	100%
Protein kinase C delta type (PRKCD, Homo sapiens, UniProt Q05655)	cell-free assay, competition with immobilised ligand	100%
Calcium/calmodulin-dependent protein kinase type II subunit beta (CAMK2B, Homo sapiens, UniProt Q13554)	cell-free assay, competition with immobilised ligand	100%
Tyrosine-protein kinase ABL1, phosphorylated (ABL1, Homo sapiens, UniProt P00519, F317I)	binding	89%
Casein kinase I isoform delta (CSNK1D, Homo sapiens, UniProt P48730)	cell-free assay, competition with immobilised ligand	100%
Myotonin-protein kinase (DMPK, Homo sapiens, UniProt Q09013)	cell-free assay, competition with immobilised ligand	86%
Calcium/calmodulin-dependent protein kinase kinase 1 (CAMKK1, Homo sapiens, UniProt Q8N5S9)	cell-free assay, competition with immobilised ligand	100%
Dual specificity tyrosine-phosphorylation-regulated kinase 1B (DYRK1B, Homo sapiens, UniProt Q9Y463)	cell-free assay, competition with immobilised ligand	82%
Cyclin-dependent kinase-like 1 (CDKL1, Homo sapiens, UniProt Q00532)	cell-free assay, competition with immobilised ligand	100%
Calcium/calmodulin-dependent protein kinase type 1G (CAMK1G, Homo sapiens, UniProt Q96NX5)	cell-free assay, competition with immobilised ligand	100%
Protein kinase C theta type (PRKCQ, Homo sapiens, UniProt Q04759)	cell-free assay, competition with immobilised ligand	99%
Serine/threonine-protein kinase 32A (STK32A, Homo sapiens, UniProt Q8WU08)	cell-free assay, competition with immobilised ligand	89%
Serine/threonine-protein kinase 25 (STK25, Homo sapiens, UniProt O00506)	cell-free assay, competition with immobilised ligand	100%
Receptor tyrosine-protein kinase erbB-2 (ERBB2, Homo sapiens, UniProt P04626)	cell-free assay, competition with immobilised ligand	95%
Phosphorylase b kinase gamma catalytic chain, liver/testis isoform (PHKG2, Homo sapiens, UniProt P15735)	cell-free assay, competition with immobilised ligand	100%
Interleukin-1 receptor-associated kinase 3 (IRAK3, Homo sapiens, UniProt Q9Y616)	cell-free assay, competition with immobilised ligand	97%
Mast/stem cell growth factor receptor Kit (KIT, Homo sapiens, UniProt P10721, L576P)	cell-free assay, competition with immobilised ligand	100%
Maternal embryonic leucine zipper kinase (MELK, Homo sapiens, UniProt Q14680)	cell-free assay, competition with immobilised ligand	89%
Mitogen-activated protein kinase 6 (MAPK6, Homo sapiens, UniProt Q16659)	cell-free assay, competition with immobilised ligand	100%
Dual specificity protein kinase CLK2 (CLK2, Homo sapiens, UniProt P49760)	cell-free assay, competition with immobilised ligand	87%

Study 3
Cell line: mouse MPNST tumor cells
Technique: high-content nuclear imaging
Measured: cell number
Tested at: 10 µM
Time: 12 h
Notes: mean of 2 replicates
Baseline: plate mean
Reading: higher = more cells
SMILES	nuclei count
O=[N+]([O-])c1cc(Cl)ccc1S(=O)(=O)N1CCN(Cc2ccccc2)CC1	-0.886 z-score
CCOC(=O)C1CSC(Cc2ccc(OCc3ccc([N+](=O)[O-])cc3)cc2)N1 (stereo not shown)	-0.317 z-score
COc1ccc(-n2c(C)c([N+](=O)[O-])c3ccc(O)cc32)cc1	1.03 z-score
CN1CC2c3ccccc3Oc3ccc(Cl)cc3C2C1 (stereo not shown)	3.07 z-score and 2.82 z-score and 1.83 z-score
CN(Cc1cc(Br)cc(Br)c1N)C1CCCCC1	0.449 z-score
CNS(=O)(=O)Cc1ccc2[nH]cc(CCN(C)C)c2c1	0.0565 z-score and 2.08 z-score and 3.9 z-score
N#CC(c1ccccc1)(c1ccccc1)c1ccccc1Cl	0.713 z-score
CN1CCN(c2ccc(/C=C(\C#N)c3ccccc3Br)cc2)CC1	1.57 z-score
CN(N=O)C(=O)NC1C(O)OC(CO)C(O)C1O (stereo not shown)	1.51 z-score

Study 4
Target: Serine/threonine-protein kinase TAO1 (TAOK1, Homo sapiens, UniProt Q7L7X3)
UniProt Q7L7X3, sequence (whole entry, looked up): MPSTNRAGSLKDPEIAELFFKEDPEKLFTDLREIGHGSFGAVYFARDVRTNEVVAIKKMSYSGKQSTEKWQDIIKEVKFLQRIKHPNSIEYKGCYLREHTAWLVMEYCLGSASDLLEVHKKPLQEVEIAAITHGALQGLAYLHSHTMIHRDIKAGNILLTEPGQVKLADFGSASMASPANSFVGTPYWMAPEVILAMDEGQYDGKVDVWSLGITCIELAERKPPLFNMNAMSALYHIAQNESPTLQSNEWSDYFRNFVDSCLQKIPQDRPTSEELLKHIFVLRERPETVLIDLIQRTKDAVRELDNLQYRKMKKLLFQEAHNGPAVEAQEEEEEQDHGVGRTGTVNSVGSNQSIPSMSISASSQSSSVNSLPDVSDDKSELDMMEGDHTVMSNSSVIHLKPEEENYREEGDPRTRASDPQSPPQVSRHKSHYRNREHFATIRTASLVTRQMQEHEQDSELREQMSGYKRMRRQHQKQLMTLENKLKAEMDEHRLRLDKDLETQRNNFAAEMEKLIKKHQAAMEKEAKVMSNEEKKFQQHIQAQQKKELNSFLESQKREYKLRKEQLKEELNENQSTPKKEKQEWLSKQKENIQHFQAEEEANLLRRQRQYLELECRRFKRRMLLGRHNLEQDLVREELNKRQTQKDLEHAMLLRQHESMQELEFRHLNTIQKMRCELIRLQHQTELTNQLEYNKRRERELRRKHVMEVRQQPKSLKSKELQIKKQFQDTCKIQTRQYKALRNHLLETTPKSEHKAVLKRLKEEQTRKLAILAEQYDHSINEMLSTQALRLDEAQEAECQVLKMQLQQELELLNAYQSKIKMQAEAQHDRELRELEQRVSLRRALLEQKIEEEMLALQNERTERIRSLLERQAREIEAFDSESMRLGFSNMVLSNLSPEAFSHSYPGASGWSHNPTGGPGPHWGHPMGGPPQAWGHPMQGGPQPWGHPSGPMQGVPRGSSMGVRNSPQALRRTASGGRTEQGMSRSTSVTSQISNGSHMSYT
Observed: enzyme activity
Action: inhibitor
Tested at: 0.5 µM
Baseline: control
Compound	remaining activity [%]
O=C1NC(=O)C(c2cn(CCCn3ccnc3)c3ccccc23)=C1Nc1ccccc1	100
Cn1sc(=O)n(Cc2ccccc2)c1=O	88.9
OCC(O)CCON=C1C(c2c(O)[nH]c3ccccc23)=Nc2ccccc21 (stereo not shown)	98.2
Cc1nc(-c2ccccc2)c(-c2ccncc2)o1	98.5
Oc1ccc(-c2nc(-c3ccncc3)c(-c3ccc(F)cc3)[nH]2)cc1	98.5
COc1ccc(CNC(=O)Nc2ncc([N+](=O)[O-])s2)cc1	101
O=C(O)c1ccc2c3c1cccc3c(=O)n1c3ccccc3nc21	93.3
CO[C@H]1C[C@@H]2CC[C@@H](C)[C@@](O)(O2)C(=O)C(=O)N2CCCC[C@H]2C(=O)O[C@H]([C@H](C)C[C@@H]2CC[C@@H](O)[C@H](OC)C2)CC(=O)[C@H](C)/C=C(\C)[C@@H](O)[C@@H](OC)C(=O)[C@H](C)C[C@H](C)/C=C/C=C/C=C/1C	102
O=C1NC(=O)C(c2cn(CCCO)c3ncccc23)=C1c1cnccn1	132
Cc1ccc(Nc2nccc(N(C)c3ccc4c(C)n(C)nc4c3)n2)cc1S(N)(=O)=O	28.9
O=c1c2ccccc2[nH]c(=S)n1CCN1CCC(=C(c2ccc(F)cc2)c2ccc(F)cc2)CC1	101
C#Cc1cccc(Nc2ncnc3cc(OCCOC)c(OCCOC)cc23)c1	98.3
COc1ccc(OC)c2c(=S)c3ccccc3[nH]c12	95.7
COc1cc2ncnc(Nc3ccc(Oc4ccccc4)cc3)c2cc1OC	105
Nc1ccc2ncnc(NCCc3ccc(Oc4ccccc4)cc3)c2c1	84.2
Nc1ncnc2n[nH]c(Nc3ccc(F)cc3)c12	92

A few entries again (study 1):
conditions	normalized BRET
2.44 nM	89.8%
27.4 nM	93.3% and 97.9%
611 pM	92.2%
